Published values gathered from unrelated publications.
Compare with care: the assays were run in different laboratories. Numbers after ± are the reported error.

Under “elimination rate constant”, `CCNCCCNC/C=C\CNCCCNCC` is recorded as 5.07 h⁻¹ (LC-MS/MS; human cancer patients, plasma; intravenous infusion 60 min, 200 mg, median, cycle 1).
`NC1(C(=O)N[C@@H](CCO)c2ccc(Cl)cc2)CCN(c2nc[nH]c3nccc2-3)CC1`: “incidence of Pyrexia” 0% (metastatic CRPC patients; 480 mg b.i.d., grade 3 to 4, treatment-related, with: enzalutamide 160 mg daily).
`CNCc1ccc(-c2[nH]c3cc(F)cc4c3c2CCNC4=O)cc1` has a vomiting incidence of 0% (human patients; oral, 240 mg twice daily, all grades).
For `O=c1[nH]c(=O)n([C@H]2C[C@H](O)[C@@H](CO)O2)cc1CCCCC[18F]`, the biodistribution was 0.13 ± 0.03 %ID/g (male CD-1 nu/nu mice, RG2 tumour, spleen; intravenous, dose not given, 2 h).
`CCc1cc(C(=O)NC)c2nccc(N3CCc4c(cc(Cn5ccnc5)cc4-c4cn(C)nc4C(F)(F)F)C3=O)c2c1` — result for “serum UREA level”: 6.1 ± 0.12 mmol/L (Sprague Dawley rats; oral, 50 mg/kg once daily, 7 days).
`O=c1[nH]c(=O)n([C@H]2C[C@H](O)[C@@H](CO)O2)cc1CCCC[18F]` has a biodistribution of 0.62 ± 0.1 %ID/g (male CD-1 nu/nu mice, RG2 tumour, bone; intravenous, dose not given, 2 h).
With `Cc1cc([C@H]2C[C@H]3[C@@H](CF)SC(N)=N[C@@]3(c3ccc(F)cc3F)CO2)on1` the CSF concentration was 40 nM (129/SVE wild-type mouse, male; subcutaneous, 100 mg/kg, 7 h).
`CCn1c(=O)c(-c2cc(NC(=O)Nc3ccccc3)c(F)cc2Br)cc2cnc(NC)cc21`: “short-term stability accuracy” 9.79% (human plasma; 4000 ng/mL, 24 h, 24 °C, high QC).
`COC(=O)c1ccc([C@H]2COC[C@@H](c3cnc(-c4ccccc4)nc3)N2)cc1` gave a solubility of < 4 µM (shake-flask, LC-HRMS; aqueous buffer; 16 h, pH 6.8).
`C[C@@H](NC(=O)N1C(=O)[C@H](Cc2ccnc(N)c2)[C@H]1C(=O)O)C1CCCCC1` has a Css of 8000 ng/mL (UPLC-MS/MS; healthy adult Chinese volunteers, plasma; continuous intravenous infusion, 2.25 mg/kg/h, day 1 of 5-day infusion, geometric mean).
`COc1cccc(OC)c1-c1cc(C(=O)NC2(C(=O)O)C3CC4CC(C3)CC2C4)nn1-c1ccc(C(=O)N(C)CCCN(C)CCCN(C)C(=O)CN2CCN(CC(=O)[O-])CCN(CC(=O)[O-])CCN(CC(=O)[O-])CC2)cc1C(C)C.[177Lu+3]` (stereo not shown) gave a tumour-to-bone ratio of 138 (mouse, HT-29 xenograft; 24 h post injection, biodistribution; relative to: tumour over bone uptake).
For `CCCCc1ccc(C#Cc2ccc(OCC)cc2)cc1`, the placental accumulation was 1.34 ± 1.82 ng/g (rat, placenta; 10 ng/mL in perfusate, low dose, mixture of 21 LCMs).
The stability of `O=C(N/N=C/c1ccccc1O)c1ccncc1` is reported as 94.2% (DMEM cell medium; 57 µM, 12 h, 5 °C, post-preparative, autosampler).
The Cmin of `O=C(O)CCC(=O)O.[2H]C([2H])([2H])Oc1cc(C)c2[nH]ccc2c1CN1CC[C@@H](C2CC2)C[C@H]1c1ccc(C(=O)O)cc1` is reported as 1990 ng/mL (human, plasma; 200 mg once daily, day 10, multiple ascending dose, geometric mean).
For `Cc1noc(C)c1Cn1cc(N2C(=O)CN(Cc3cccc(O)c3)C2=O)cn1`, the remaining parent was 90 % peak area (pooled human liver microsomes; 1 µM, 120 min, pH 7.4).
Under “treatment-emergent adverse events”, `O=C(Nc1nc2cccc(-c3ccc(CN4CCS(=O)(=O)CC4)cc3)n2n1)C1CC1` is recorded as 0% (refers to: blood calcium increased; rheumatoid arthritis patients; oral, 300 mg once daily, 4 weeks, any relatedness).
`CCC[C@H](C)[C@H]1CN(C(=O)OCC)C[C@@H](c2cc(Cl)cc(Cl)c2)N1` has a solubility of < 4 µM (shake-flask, LC-HRMS; aqueous buffer; 16 h, pH 6.8).
`N#Cc1ccc2c(c1)[C@H]1CCCN(C(=O)c3ccc4[nH]cnc4c3)[C@H]1C2`: “Cmax steady state” 14.8 µM (human, plasma; oral, 240 mg once daily, steady state).
`C=CC(=O)NC1CCN(c2ncc3ncnc(Nc4ccc(Oc5ccc6c(c5)ncn6C)c(C)c4)c3n2)CC1`: “adverse events incidence” 0% (refers to: GGT increased; human male; oral, dose not given, CTCAE on-treatment AEs).
The placental accumulation of `CCCCOc1ccc([C@H]2CC[C@H](CCC)CC2)c(F)c1F` is reported as 18.8 ± 9.14 ng/g (rat, placenta; 10 ng/mL in perfusate, low dose, mixture of 21 LCMs).
For `C=CC(=O)N1CCC[C@@H](n2c(=O)n(-c3ccc(Oc4ccccc4)cc3)c3c(N)nccc32)C1`, “Cmax fed/fasted ratio” read 1.18 (human; oral, 240 mg; relative to: fed over fasted).
`C[C@@H](Nc1cc(F)cc(F)c1)c1cc(C(=O)N(C)C)cc2c(=O)cc(N3CCOCC3)oc12`: “patients discontinuing for AE” 0% (refers to: Hematuria; advanced solid tumour patients; oral, dose not given, dose expansion).
With `O=c1[nH]c(=O)n([C@@H]2O[C@H](CO)[C@@H](O)[C@@H]2F)cc1CCCCC[18F]` the biodistribution was 0.27 ± 0.05 %ID/g (nude mice, RG2 tumour, liver; intravenous, dose not given, 2 h).
`N#Cc1ccc2c(c1)[C@H]1CCCN(C(=O)c3ccc4[nH]cnc4c3)[C@H]1C2` — result for “total testosterone level”: 0.6 nmol/L (human females; 360 mg, day 7).
`Cc1ccc([C@@H]2O[C@H](CO)[C@@H](O)[C@H](O)[C@H]2O)cc1Cc1ccc(-c2ccc(F)cc2)s1`: “urinary chloride excretion change” -28.9 mEq (Japanese type 2 diabetes patients; 400 mg, day 6, 24 h urine collection; relative to: baseline).
Under “QRS duration change”, `CNCCOC12CC3(C)CC(C)(CC(Cn4ncc(-c5ccc(N6CCc7cccc(C(=O)Nc8nc9ccccc9s8)c7C6)nc5C(=O)O)c4C)(C3)C1)C2` is recorded as -1 ms (beagle dog, male, anaesthetised; intravenous bolus, 0.03 mg/kg, 45 min; relative to: baseline).
`O=C(O)CCCOc1ccc([18F])cc1-c1cc(-c2ccccc2C(F)(F)F)n(-c2ccccc2)n1` gave a radioactivity uptake of 1.07 ± 0.6 SUV (gamma counting; male ddY mice, muscle; intravenous, 2.1 MBq, 1 min).
Under “stability relative error”, `C=CC(=O)N1CCC([C@@H]2CCNc3c(C(N)=O)c(-c4ccc(Oc5ccccc5)cc4)nn32)CC1` is recorded as -1.3% (rat plasma; 2 ng/mL, 3 h, room temperature; relative to: nominal concentration).
`Cc1ccc(Sc2ccccc2N2CCNCC2)c(C)c1` — result for “increased urine β2-microglobulin”: 0% (elderly men; oral, 10 mg single).
With `CCN1/C(=C/C(C)=O)Sc2ccc(F)cc21` the heart rate was 114 ± 22 beats/min (cynomolgus monkey; oral, 10 mg/kg, 2 h post-dose).
`C=CC(=O)Nc1cc(Nc2nccc(-c3cn(C)c4ccccc34)n2)c(OC)cc1N(C)CCN(C)C` — result for “Tmax at steady state”: 4.03 h (human, plasma; oral, 80 mg, cycle 3 day 1, osimertinib alone, randomized arm).
Under CSF concentration, `Cc1cc([C@H]2C[C@H]3[C@@H](C)SC(N)=N[C@@]3(c3ccc(F)cc3F)CO2)on1` is recorded as “not detected” (mouse; subcutaneous, 50 mg/kg, 18 h).
With `CCOC(=O)N1C[C@@H](C2CCCC2)N[C@@H](c2ccc(C(F)(F)F)cc2)C1` the solubility was < 4 µM (shake-flask, LC-HRMS; aqueous buffer; 16 h, pH 6.8).
`CC(C)=CCC/C(C)=C/CC/C(C)=C/CC[C@@](C)(O)CCC1=C(C)C(=O)C(C)=C(C)C1=O` — result for itraconazole half-life: “no effect” (human; 400 mg, with: itraconazole 200 mg).
`C[C@H](CCC(=O)NCC(=O)O)[C@H]1CC[C@H]2[C@@H]3CC[C@@H]4C[C@H](OS(=O)(=O)O)CC[C@]4(C)[C@H]3CC[C@]12C` gave a Cmin of 0.38 ± 0.09 µM (human, plasma; control).
For `CCn1c(=O)c(-c2cc(NC(=O)Nc3ccccc3)c(F)cc2Br)cc2cnc(NC)cc21`, “participants with grade ≥ 3 TEAE” read 0% (refers to: lipase increased; healthy human, matched to moderate hepatic impairment; oral, 50 mg single dose).
With `COCCOc1cnc2ccn([C@H](C)c3nnc4c(F)cc(-c5cnn(C)c5)cn34)c(=O)c2c1` the Ctrough was 40 ng/mL (patients, plasma; oral, 25 mg once daily, day 28 24 h postdose).
`FC(F)(F)c1ccc(CNc2ccc(Cc3c[nH]c4ncc(Cl)cc34)cn2)cn1`: “patients with treatment-related adverse event” 72% (refers to: hair colour changes; patients with TGCT; oral, 1000 mg/day, all grades).
`O=C(N[C@H](Cc1c[nH]c2ccccc12)C(=O)Nc1ccncc1)c1ccc(-c2ccc(F)c(Cl)c2)cc1F` has a concentration of 18.6 µM (Swiss Webster mouse, female, fat; oral, 50 mg/kg, 8 h, 20% Kolliphor vehicle).
For `COc1ccc2c(c1)CN(C(=O)CCN1CCC(Cc3ccccc3)CC1)CC[S@@+]2[O-]`, the heart rate was 85 ± 27 beats/min (telemetry; conscious dog; intravenous, 8 mg/kg, 2 h).
`CNC(=O)c1ccc(-c2cnc3ncc(Cc4ccc5ncccc5c4)n3n2)cc1F` — result for “Lymphocyte count decreased dose reduction/interruption”: 1% (Japanese patients; oral, 400 mg, grade 3/4).
`CCOc1c([C@H](C)n2nc(C)c3c(N)ncnc32)cc(Cl)c(F)c1[C@@H]1CNC(=O)C1` has a patients of 100% (refers to: QRS ≤100 ms; previously treated B-cell malignancy; oral, 45 mg once daily, baseline below thresholds).
`COc1cccc(-c2n[nH]c(SCc3ccccn3)n2)c1OC` gave a plasma concentration of 8220 ng/mL (Sprague-Dawley rats, both sexes; oral dietary, 100 mg/kg/day, day 90, 6 h).
The Stokes shift of `Nc1cccc2ccc(/C=C/C(=O)c3ccc(O)cc3)cc12` is reported as 137 nm (toluene; 20 °C).
With `Cn1cc([C@H]2COC[C@H](c3cc(Cl)cc(Cl)c3)N2)cn1` the solubility was > 750 µM (shake-flask, LC-HRMS; aqueous buffer; 16 h, pH 6.8).
For `COc1cc(C(=O)N2CCC3(CC2)CC(=O)c2c(cnn2C(C)C)C3)cc(-c2ccc(C(=O)O)cc2)n1`, “HDL cholesterol change from baseline” read -11.2% (human, fasting serum; 40 mg once daily, day 13, adjusted geometric mean).

A few entries again:
For `O=c1[nH]c(=O)n([C@H]2C[C@H](O)[C@@H](CO)O2)cc1CCCCC[18F]`, the biodistribution was 0.13 ± 0.03 %ID/g (male CD-1 nu/nu mice, RG2 tumour, spleen; intravenous, dose not given, 2 h).
The stability of `O=C(N/N=C/c1ccccc1O)c1ccncc1` is reported as 94.2% (DMEM cell medium; 57 µM, 12 h, 5 °C, post-preparative, autosampler).
`Cc1ccc([C@@H]2O[C@H](CO)[C@@H](O)[C@H](O)[C@H]2O)cc1Cc1ccc(-c2ccc(F)cc2)s1`: “urinary chloride excretion change” -28.9 mEq (Japanese type 2 diabetes patients; 400 mg, day 6, 24 h urine collection; relative to: baseline).
